# Published values gathered from unrelated publications.
# Lines come from different studies, so protocols differ. Numbers after ± are the reported error.
SMILES,assay,system,setting,tissue uptake
CC[C@H](C)[C@H](NC(=O)[C@H](CCCCN)NC(=O)CNC(=O)[C@H](CC(C)C)NC(=O)[C@H](Cc1ccccc1)NC(=O)[C@H](CCCCN)NC(=O)[C@H](CO)NC(=O)[C@H](Cc1ccccc1)NC(=O)[C@H](Cc1c[nH]c2ccccc12)NC(=O)[C@H](CCC(N)=O)NC(=O)[C@@H](NC(=O)[C@H](Cc1ccccc1)NC(=O)CCCCCNC(=O)CN1CCN(CC(=O)O)CCN(CC(=O)O)CCN(CC(=O)O)CC1)C(C)C)C(=O)N[C@@H](CCC(=O)O)C(=O)N1CCC[C@H]1C(=O)N[C@@H](CC(=O)O)C(=O)N[C@H](C(=O)N[C@@H](CO)C(=O)N[C@@H](CCC(N)=O)C(=O)N[C@H](C(=O)N[C@@H](CCC(N)=O)C(=O)N[C@@H](CC(=O)O)C(=O)N1CCC[C@H]1C(=O)N[C@@H](CC(N)=O)C(=O)N[C@@H](CC(=O)O)C(=O)N[C@@H](CCC(N)=O)C(=O)N[C@@H](Cc1ccc(O)cc1)C(=O)N[C@@H](CCC(=O)O)C(=O)N1CCC[C@H]1C(=O)N[C@@H](Cc1ccccc1)C(=O)O)C(C)C)C(C)C [copper-64 labelled],,"C57BL/6 mice, male, tumour-free, pancreas",0.5 h,1.67 ± 0.1 %ID/g
O=C([O-])CNC(=O)CN1CCN(CC(=O)NCC(=O)[O-])CCN(CC(=O)NCC(=O)[O-])CCN(CC(=O)NCC(=O)[O-])CC1.[177Lu+3],,"Sprague-Dawley rat, stomach","intravenous (tail vein), dose not given, 2 h",0.014 ± 0.006 % injected dose/g
CC[C@H](C)[C@H](NC(=O)[C@H](CCCNC(=N)N)NC(=O)[C@H](CCCCN)NC(=O)[C@H](Cc1ccc(O)cc1)NC(=O)[C@H](CC(=O)O)NC(=O)[C@H](C)NC(=O)CNC(=O)CCOCCOCCOCCNC(=O)CN1CCN(CC(=O)O)CCN(CC(=O)O)CCN(CC(=O)O)CC1)C(=O)N[C@H](C(=O)N[C@@H](CC(C)C)C(=O)N[C@@H](CCCCN)C(=O)N[C@H](C(=O)N[C@@H](CC(N)=O)C(N)=O)C(C)C)[C@@H](C)O [copper-64 labelled],ex vivo gamma counting,"C57BL/6J male mice, B16-F10 tumour, heart","intravenous, 1.85 MBq, 100 min",0.44 ± 0.17 %ID/g
Cc1ccccc1-c1ccc(-c2nc(-c3ccc(CN(C)CCCC(=O)O)c([18F])c3)no2)cc1C(F)(F)F,,"Sprague Dawley rats, male, pancreas",120 min,0.32 ± 0.16 %ID/g
CN1Cc2cc(Cl)ccc2-n2c(nnc2C2CCN(c3cccc([18F])n3)CC2)C1,,"C57BL/6 mouse male, kidney","intravenous, dose not given, 30 min, together with: blocking agent 10 mg/kg",9.15 ± 2.44 %ID/g
CC(C)C[C@@H](NC(=O)[C@@H](CCCNC(=N)N)NC(=O)[C@@H](Cc1c[nH]cn1)NC(=O)[C@@H](Cc1c[nH]c2ccccc12)NC(=O)[C@@H](Cc1c[nH]cn1)NC(=O)[C@@H](Cc1ccccc1)NC(=O)[C@H](NC(=O)[C@@H](Cc1ccc(O)cc1)NC(=O)CNC(=O)CNC(=O)CCOCCOCCOCCNC(=O)CN1CCN(CC(=O)O)CCN(CC(=O)O)CC1)[C@H](C)O)C(=O)N[C@H](CC(N)=O)C(=O)N1CCC[C@@H]1C(=O)O [gallium-68 labelled],,"C57BL/6 mice, male, blood","intravenous, 1.85 MBq, 60 min, together with: blocking antibody",0.94 ± 0.34 %ID/g
CCOP(=O)(CNC(=O)CN1CCN(CC(=O)NCP(=O)(OCC)OCC)CCN(CC(=O)NCP(=O)(OCC)OCC)CCN(CC(=O)NCP(=O)(OCC)OCC)CC1)OCC.[177Lu+3],,"Sprague-Dawley rat, muscle","intravenous (tail vein), dose not given, 2 h",0.018 ± 0.008 % injected dose/g
CSCC[C@H](NC(=O)CNC(=O)[C@H](CCCCN)NC(=O)[C@H](CC(C)C)NC(=O)[C@@H]1CCCN1C(=O)[C@H](CO)NC(=O)[C@H](Cc1c[nH]cn1)NC(=O)[C@H](Cc1c[nH]c2ccccc12)NC(=O)[C@H](CCCNC(=N)N)NC(=O)[C@H](CC(C)C)NC(=O)[C@H](CCCNC(=N)N)NC(=O)[C@H](Cc1c[nH]c2ccccc12)NC(=O)[C@H](CS)NC(=O)CCCCCNC(=O)CN1CCN(CC(=O)O)CCN(CC(=O)O)CCN(CC(=O)O)CC1)C(=O)O [copper-64 labelled],ex vivo biodistribution,"BALB/c nude mice, muscle","intravenous, dose not given, 6 h, Huh-7 tumour-bearing",0.45 %ID/g
CCCC[C@H]1C(=O)N(C)[C@@H](CCCC)C(=O)N[C@@H](CCCNC(=O)CN2CCN(CC(=O)O)CCN(CC(=O)O)CCN(CC(=O)O)CC2)C(=O)N[C@H](C(=O)NCC(N)=O)CSCC(=O)N[C@@H](Cc2ccc(O)cc2)C(=O)N(C)[C@@H](C)C(=O)N[C@@H](CC(N)=O)C(=O)N2CCC[C@H]2C(=O)N[C@@H](Cc2c[nH]cn2)C(=O)N[C@@H](CC(C)C)C(=O)N(C)CC(=O)N[C@@H](Cc2c[nH]c3ccccc23)C(=O)N[C@@H](CO)C(=O)N[C@@H](Cc2c[nH]c3ccccc23)C(=O)N1C [gallium-68 labelled],,"NOD/SCID mice with CHO-hPD-L1 xenograft, stomach",10 min post injection,2.94 ± 0.26 %ID/g
C[C@H](O)[C@@H](NC(=O)[C@H]1CCCN1C(=O)[C@@H](CCCCN)NC(=O)[C@@H](CO)NC(=O)[C@@H](Cc1ccc(O)cc1)NC(=O)[C@@H](CC(N)=O)NC(=O)CCOCCOCCOCCNC(=O)CN1CCN(CC(=O)O)CCN(CC(=O)O)CCN(CC(=O)O)CC1)C(=O)N[C@H](CC(=O)O)C(=O)N[C@H](CCCNC(=N)N)C(=O)N[C@H](CCC(N)=O)C(=O)N[C@H](Cc1ccc(O)cc1)C(=O)N[C@H](Cc1c[nH]cn1)C(=O)N[C@H](Cc1ccccc1)C(N)=O [gallium-68 labelled],ex vivo gamma counting,"BALB/c nude mouse, U-87 MG xenograft, blood","intravenous, 1.85 MBq, 5 min",3.89 ± 0.43 %ID/g
